Measured values collected from several papers.
Compare with care: the assays were run in different laboratories. Several values in a cell are separate wells, animals, samples, runs or records. ± marks the error that the study gave.

O=S(=O)(O)C(F)(F)C(F)(F)C(F)(F)C(F)(F)F — gene expression (RNA-seq pathway analysis, measured: fatty acid β-oxidation genes; liver spheroids; top non-cytotoxic, 10 d): increased
Cc1cn(-c2cc(NC(=O)c3ccc(C)c(Nc4nccc(-c5cccnc5)n4)c3)cc(C(F)(F)F)c2)cn1 — difference in mean NPI score (human patients; dose not given, 12 to 6 months, caregiver distress; reference: placebo, direction not given): 0
N=C(N)NCCC[C@@H]1NC(=O)[C@H](Cc2ccc(O)cc2)NC(=O)[C@@H](CCCCN)NC(=O)[C@@H](Cc2ccccc2)NC1=O — inhibition (maximal contraction, partial agonist; guinea pig ileum; concentration not given): 60%
CN1CCN(S(=O)(=O)c2cc([N+](=O)[O-])ccc2N(CCOS(C)(=O)=O)CCOS(C)(=O)=O)CC1 — EFS delay (T-C) (NSG mice, sample BG PDX; intraperitoneal, 25 mg/kg weekly x3; reference: vehicle): 255 days
C[C@H]1O[C@@H](O[C@H]2CC[C@@]3(C)[C@@H](CC[C@]4(C)[C@@H]3C=C[C@]35OC[C@@]6(CCC(C)(C)C[C@H]63)[C@@H](O)C[C@]54C)[C@]2(C)CO)[C@H](O)[C@@H](O[C@@H]2O[C@H](CO)[C@@H](O)[C@H](O)[C@H]2O)[C@H]1O — adipose area (H&E staining; Mus musculus, chronic-plus-binge ethanol-fed, AAV8-TBG-Null vector, liver; oral, high dose; reference: section): 11.2% and 11.4% and 13.2% and 11.3% and 16.2% and 12.4% and 15.9%
O=C(O)/C=C/C(=O)O.Oc1cccc2[nH]cc(CCNCc3ccccc3)c12 — body temperature change (C57BL/6J mice; subcutaneous, 0.1 mg/kg; reference: pre-session baseline): 0.3 ± 0.2 °C
CS(=O)(=O)c1ccc(-c2nnc(/C=C/c3nnc(-c4ccc(C#N)cc4)o3)n2-c2ccccc2Cl)nc1 — normalized enrichment score (RNA-seq GSEA, measured: HALLMARK_UNFOLDED_PROTEIN_RESPONSE; organoids, small intestinal, Apc Q1405X, mouse; dose not given, knockout organoids; reference: DMSO, direction not given): -1.83
Cc1cccc(C)c1NC(=O)C1CCCCN1 (stereo not drawn) — motor block duration (Sprague-Dawley rat, male, sciatic nerve; 30 mM): 13 min and 10 min
CCCCC/C=C\C/C=C\C/C=C\C/C=C\CCCC(=O)NCCO — time to peak effect (anti-allodynic effect, electronic von Frey; mouse, CFA inflammatory pain; i.p., 20 mg/kg): 10 min
CCCCC[C@H](CC(=O)NO)C(=O)N[C@H](C(=O)N1CCC[C@H]1CO)C(C)C — maximum inhibition (human coronavirus OC43; virus-induced cell killing; MRC-5; screen): 6.98%
COc1ccc(CCC2CCCC(CCc3ccc(OC)cc3)N2C[C@@H](O)CO)cc1.Cl (stereo in doubt) — DOPAC overflow (rat striatal slices; 30 µM, 30 min, no methamphetamine): 621 ± 184 pg/30 mL/mg
CCCCC1(CCCC)CN(c2ccccc2)c2cc(SC)c(OCC(=O)N[C@@H](C(=O)NCC(=O)O)c3ccccc3)cc2S(=O)(=O)C1 — serum HDL-C (measured: HDL cholesterol; human, serum; 5 mg once daily, day 1): 48.1 mg/dL
C[C@]1(CO)Cc2ncn(-c3ccc(C#N)c(Cl)c3)c2C(=O)O1 — urinary excretion (aldosterone synthesis, inhibitor, measured: sodium; healthy Japanese adults, urine; 3 mg, 0-24 h at steady state, multiple rising dose): 153 mmol
CC[C@H](C)[C@@H]1NC(=O)[C@@H]2CCCN2C(=O)[C@H](CC(C)C)NC(=O)[C@H](CC(C)C)NC(=O)CNC(=O)[C@@H](NC(=O)[C@@H](NC(=O)[C@H](CC(=O)O)NC(=O)CNC(=O)[C@@H](NC(=O)[C@H](C)NC(=O)CNC(=O)[C@H](CCCCN)NC(=O)[C@H](CC(C)C)NC(=O)[C@H](CC(C)C)NC(=O)[C@H](CCCCN)NC(=O)CNC(=O)[C@@H](NC(=O)[C@@H](N)CC(C)C)C(C)C)C(C)C)C(C)C)CSSC[C@@H](C(=O)O)NC1=O — log2 fold change (RNA-seq, measured: Fam228a; mouse, traumatic brain injury model, frontal cortex and hippocampus; dose not given; reference: TBI alone): 1.26
C=CC(=O)Nc1cc(Nc2ncc(Cl)c(Nc3ccccc3C(=O)C(=O)N(C)C)n2)c(OC)cc1N1CCN(C)CC1 — patients with complete response (RECIST v1.1 best response; human EGFR T790M NSCLC; oral, 25 mg/day, per-protocol set): 0%
CC(C)CCCCCCCCC[C@@H]1CC(=O)N[C@@H](CCC(=O)O)C(=O)N[C@@H](CC(C)C)C(=O)N[C@H](CC(C)C)C(=O)N[C@@H](C(C)C)C(=O)N[C@@H](CC(=O)O)C(=O)N[C@H](CC(C)C)C(=O)N[C@@H](CC(C)C)C(=O)O1 — fusion time constant (calcein leakage; DOPC/CHOL liposomes; concentration not given, added: 20 wt% PEG-8000): 16 ± 1 min
Cc1cn([C@H]2O[C@@H](CO[P@@](=O)(N[C@@H](C)C(=O)OC(C)C)Oc3ccccc3)[C@H](O)[C@H]2F)c(=O)[nH]c1=O — change in HBsAg (adults with chronic hepatitis B; 50 mg, day 28; reference: baseline): -0.09 log10 IU/mL
CC[C@H](C)C[C@H](C)CCCCCCCCC(=O)N[C@H]1C[C@@H](O)[C@@H](NCCN)NC(=O)[C@@H]2[C@@H](O)CCN2C(=O)[C@H]([C@H](O)CCN)NC(=O)[C@H]([C@H](O)[C@@H](O)c2ccc(O)cc2)NC(=O)[C@@H]2C[C@@H](O)CN2C(=O)[C@H]([C@@H](C)O)NC1=O — fusion time constant (calcein leakage; DOPC/DOPG/CHOL liposomes; concentration not given, added: 20 wt% PEG-8000): 11 ± 3 min
CC1=C(CC(=O)O)c2cc(F)ccc2/C1=C\c1ccc([S+](C)[O-])cc1 (stereo not drawn) — maximum inhibition (human coronavirus OC43; virus-induced cell killing; MRC-5; screen): 24.4%
CC(=O)c1c(C)c2cnc(Nc3ccc(C4CCN(CCS(C)(=O)=O)CC4)cn3)nc2n(C2CCCC2)c1=O — T/C (tumour growth; rat, MCF7 breast cancer model; oral, 40 mg/kg twice daily, 28 days): -25%
C[C@]12CC[C@H](O)C[C@H]1CC[C@@H]1[C@@H]2CC[C@]2(C)[C@@H](c3ccc(=O)oc3)CC[C@]12O — tumour volume (female nude mouse LCC2 xenograft; 1.0 mg/kg, day 17, tamoxifen-resistant): 45 mm3 and 65.4 mm3 and 73.7 mm3 and 29.8 mm3 and 51.2 mm3 and 58.7 mm3 and 79.6 mm3

A few entries again:
Cc1cn([C@H]2O[C@@H](CO[P@@](=O)(N[C@@H](C)C(=O)OC(C)C)Oc3ccccc3)[C@H](O)[C@H]2F)c(=O)[nH]c1=O — change in HBsAg (adults with chronic hepatitis B; 50 mg, day 28; reference: baseline): -0.09 log10 IU/mL
CC[C@H](C)C[C@H](C)CCCCCCCCC(=O)N[C@H]1C[C@@H](O)[C@@H](NCCN)NC(=O)[C@@H]2[C@@H](O)CCN2C(=O)[C@H]([C@H](O)CCN)NC(=O)[C@H]([C@H](O)[C@@H](O)c2ccc(O)cc2)NC(=O)[C@@H]2C[C@@H](O)CN2C(=O)[C@H]([C@@H](C)O)NC1=O — fusion time constant (calcein leakage; DOPC/DOPG/CHOL liposomes; concentration not given, added: 20 wt% PEG-8000): 11 ± 3 min
